{"data": "Measurements of several laboratories", "note": "Numbered parts are unrelated; each lists some results of a single study. Substitutions count along the parent as printed."}
{"data": "Sample 1", "target": "ABI1, truncated, D143A, DHFR fusion (Arabidopsis thaliana)", "method": "DHFR PCA, deep sequencing", "matrix": "yeast", "setting": "methotrexate growth selection, single substitutions", "together with": "(+)-ABA 0 µM", "baseline": "wild-type fitted maximum", "reading": "higher = stronger binding", "starting sequence": "PYL1, truncated, DHFR fusion (Arabidopsis thaliana); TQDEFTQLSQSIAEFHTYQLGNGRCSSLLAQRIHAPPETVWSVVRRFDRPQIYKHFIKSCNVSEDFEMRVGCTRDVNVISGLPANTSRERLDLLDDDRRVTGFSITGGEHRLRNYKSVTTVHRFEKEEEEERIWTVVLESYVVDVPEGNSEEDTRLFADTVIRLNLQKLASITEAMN; partner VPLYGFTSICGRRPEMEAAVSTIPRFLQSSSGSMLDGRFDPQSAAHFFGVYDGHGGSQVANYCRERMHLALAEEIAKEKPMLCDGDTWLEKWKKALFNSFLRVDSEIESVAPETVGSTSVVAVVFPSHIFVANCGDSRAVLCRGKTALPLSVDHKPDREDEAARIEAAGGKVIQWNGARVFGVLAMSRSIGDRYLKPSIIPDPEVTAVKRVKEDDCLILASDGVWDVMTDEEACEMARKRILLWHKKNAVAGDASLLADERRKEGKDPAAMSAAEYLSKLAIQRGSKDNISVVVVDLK"}
{"Variant": "R45N", "relative binding score [%]": -0.597}
{"Variant": "V70D", "relative binding score [%]": -0.308}
{"Variant": "H34V", "relative binding score [%]": 0.872}
{"Variant": "N165P", "relative binding score [%]": 6.5}
{"Variant": "G81I", "relative binding score [%]": 14}
{"Variant": "S27K", "relative binding score [%]": 3.16}
{"Variant": "P83Y", "relative binding score [%]": 6.69}
{"Variant": "K126Q", "relative binding score [%]": 43.2}
{"Variant": "D75R", "relative binding score [%]": 6.04}
{"data": "Sample 2", "target": "CCND3, cyclin fold, Cln2 fusion (human)", "method": "yeast growth competition, sequencing", "matrix": "yeast", "setting": "weak parent motif", "baseline": "not given", "reading": "higher = stronger binding", "starting sequence": "MASTL docking peptide (human); PMIAKNLMCELDE"}
{"Variant": "PMIAHNLMCELDE [K5H]", "normalised enrichment score": -0.14}
{"Variant": "PMIAKNLMCELIE [D12I]", "normalised enrichment score": -0.111}
{"Variant": "PMQAKNLMCELDE [I3Q]", "normalised enrichment score": 0.0057}
{"Variant": "PMIAKNLMCVLDE [E10V]", "normalised enrichment score": 0.0402}
{"Variant": "PMIARNLMCELDE [K5R]", "normalised enrichment score": 0.0395}
{"Variant": "PMEAKNLMCELDE [I3E]", "normalised enrichment score": 0.105}
{"Variant": "PMIAKNLMCCLDE [E10C]", "normalised enrichment score": 0.0198}
{"Variant": "PMIAKNAMCELDE [L7A]", "normalised enrichment score": -0.252}
{"Variant": "PMIVKNLMCELDE [A4V]", "normalised enrichment score": -0.0517}
{"Variant": "PMIAKNLMCNLDE [E10N]", "normalised enrichment score": 0.219}
{"Variant": "PMIAKNLMCELKE [D12K]", "normalised enrichment score": 0.153}
{"Variant": "PMIAKNLRCELDE [M8R]", "normalised enrichment score": 0.0384}
{"Variant": "PMIAKELMCELDE [N6E]", "normalised enrichment score": -0.0903}
{"data": "Sample 3", "target": "RNA binding protein fox-1 homolog 2, RRM domain, GST-SBP tag (RBFOX2, Homo sapiens, UniProt O43251-10, residues 100-194)", "method": "RNA Bind-n-Seq", "molecule type": "RNA", "matrix": "in vitro", "concentration": "365 nM", "setting": "natural RNA segment, single round, ends assumed", "baseline": "no-protein control", "reading": "higher = stronger binding", "all sequences stand within": "GGGAGUUCUACAGUCCGACGAUC … UGGAAUUCUCGGGUGCCAA", "Residues (chain)": "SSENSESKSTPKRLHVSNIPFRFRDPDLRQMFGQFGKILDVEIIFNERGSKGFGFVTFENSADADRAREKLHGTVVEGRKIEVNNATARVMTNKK"}
{"Strand": "GAAGCUGAAUGGAAUCUGACGGUUGGGAGUGGUGGAAAUUGGAAGGAUACCAGGAGGUAUUUGGGAAGGCCAAUGGCGUGGCUCCUUUGAGGAAAUAAAACACUAAGCAU", "RBNS enrichment (R)": 1.39}
{"Strand": "UACUGACCAUAGCAUGUGACACUCAGACUUCUCAGCUCCUGUGCAUCCCAGUGUAGGCUCUGAGGCCACAUGGAAACUCUAGAUGGUUCUGAUCACUCUAGCCACCGGAG", "RBNS enrichment (R)": 6.52}
{"Strand": "UGGGUGGGAGUGGAAGUCCCUAGCACACAGCUUUGUGGAGACCUCCACUCUCACUCUUGGUGCAACUGACUUCCACUUCUUAUGCAGCCACUCCCAGGUGCAUGCUUCAG", "RBNS enrichment (R)": 0.779}
{"Strand": "GCAUGUCCAAGAUGACCCUUCUCCCCUACCUCUACCUAGCCACUGGCAGGGAGGGGAGACAGUGGUGAUAGCAGCAGCACUCUAGGCAUGGUGAACGCCUGGGACCAAGC", "RBNS enrichment (R)": 0.81}
{"Strand": "GUACCGAUAAAAACAAAACCAAAUCCAUAUUAUACAUCAAAACCUUGUGAGACAUUCACUUGCUCUUUUGCCAUAUUUAGAUGUGUCAGUGGAAUCAGAAACCUGUUUUG", "RBNS enrichment (R)": 0.417}
{"Strand": "UAGCUAUGAAGAAAACACAAAGUGUAUAAAUCUGAGUAUAUAUUUACAUGUCUUUUUAAAAGGGUCGUACCAGAGAUUUACCCAUCGGGUAAGAUGCUCCUGGUGGCUGG", "RBNS enrichment (R)": 0.396}
{"Strand": "UAAGUGCUAAACAGAAUACUGCUAUUUUGAGAGAGUCAAGACUCUUUCUUAAGGGCCAAGAAAGCAACUUGAGCCUUGGGCUAAUCUGGCUGAGUAGUCAGUUAUAAAAG", "RBNS enrichment (R)": 0.236}
{"Strand": "GGAGCCUGGCUGUUUCACAGUAUUUCAUGAAUUUACCCACACAGGUGUGAUCCUCCUUGAGCAUUGAGGAGGCACAUGGAGAACUAAAUCUUUUGUAGUAGCUGAGAUCU", "RBNS enrichment (R)": 0.688}
{"Strand": "AGUCUUAAAAAAUUCUAUCAGAUGUGUCAUGAGACUGUUUCAGACUCAUGUCUGCUUAAAAUUCACGCUGACCUUGCAGAGCACCAGAGCAUGGGGCUGGCAUGCAGGAA", "RBNS enrichment (R)": 11.1}
{"data": "Other studies, line by line"}
{"Molecule": "PhoQ, residues 284 288 289 292 302 303 SIHLQL", "target": "PhoP, residues 12 14 15 18 19 LHSVW (Escherichia coli, UniProt P23836)", "assay": "Sort-seq, refers to: YFP reporter", "test system": "E. coli", "setting": "PhoQ-PhoP variant library, together with: 10 µM Mg2+", "scale": "baseline: high Mg2+ state, higher = stronger signaling", "endpoint": "fold induction", "value": 1.19}
{"note": "For quick reference, copied from above (other studies, line by line):"}
{"Molecule": "PhoQ, residues 284 288 289 292 302 303 SIHLQL", "target": "PhoP, residues 12 14 15 18 19 LHSVW (Escherichia coli, UniProt P23836)", "assay": "Sort-seq, refers to: YFP reporter", "test system": "E. coli", "setting": "PhoQ-PhoP variant library, together with: 10 µM Mg2+", "scale": "baseline: high Mg2+ state, higher = stronger signaling", "endpoint": "fold induction", "value": 1.19}
